Results gathered from unrelated publications.
Each numbered part is a random draw from the data of one study; scales do not carry over between parts.
Chain of UniProt P45984 (whole entry, looked up): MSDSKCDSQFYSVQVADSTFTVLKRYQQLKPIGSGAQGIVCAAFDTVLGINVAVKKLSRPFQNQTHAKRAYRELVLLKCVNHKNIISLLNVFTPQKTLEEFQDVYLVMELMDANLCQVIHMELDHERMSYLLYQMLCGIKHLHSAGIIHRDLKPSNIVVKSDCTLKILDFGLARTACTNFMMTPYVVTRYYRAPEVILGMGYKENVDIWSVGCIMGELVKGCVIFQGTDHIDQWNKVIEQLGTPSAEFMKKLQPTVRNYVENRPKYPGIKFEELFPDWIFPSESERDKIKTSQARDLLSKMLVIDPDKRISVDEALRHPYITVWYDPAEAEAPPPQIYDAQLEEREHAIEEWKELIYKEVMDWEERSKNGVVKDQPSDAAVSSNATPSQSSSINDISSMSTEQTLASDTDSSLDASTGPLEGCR
Chain of UniProt P42336 (whole entry, unmodified, looked up): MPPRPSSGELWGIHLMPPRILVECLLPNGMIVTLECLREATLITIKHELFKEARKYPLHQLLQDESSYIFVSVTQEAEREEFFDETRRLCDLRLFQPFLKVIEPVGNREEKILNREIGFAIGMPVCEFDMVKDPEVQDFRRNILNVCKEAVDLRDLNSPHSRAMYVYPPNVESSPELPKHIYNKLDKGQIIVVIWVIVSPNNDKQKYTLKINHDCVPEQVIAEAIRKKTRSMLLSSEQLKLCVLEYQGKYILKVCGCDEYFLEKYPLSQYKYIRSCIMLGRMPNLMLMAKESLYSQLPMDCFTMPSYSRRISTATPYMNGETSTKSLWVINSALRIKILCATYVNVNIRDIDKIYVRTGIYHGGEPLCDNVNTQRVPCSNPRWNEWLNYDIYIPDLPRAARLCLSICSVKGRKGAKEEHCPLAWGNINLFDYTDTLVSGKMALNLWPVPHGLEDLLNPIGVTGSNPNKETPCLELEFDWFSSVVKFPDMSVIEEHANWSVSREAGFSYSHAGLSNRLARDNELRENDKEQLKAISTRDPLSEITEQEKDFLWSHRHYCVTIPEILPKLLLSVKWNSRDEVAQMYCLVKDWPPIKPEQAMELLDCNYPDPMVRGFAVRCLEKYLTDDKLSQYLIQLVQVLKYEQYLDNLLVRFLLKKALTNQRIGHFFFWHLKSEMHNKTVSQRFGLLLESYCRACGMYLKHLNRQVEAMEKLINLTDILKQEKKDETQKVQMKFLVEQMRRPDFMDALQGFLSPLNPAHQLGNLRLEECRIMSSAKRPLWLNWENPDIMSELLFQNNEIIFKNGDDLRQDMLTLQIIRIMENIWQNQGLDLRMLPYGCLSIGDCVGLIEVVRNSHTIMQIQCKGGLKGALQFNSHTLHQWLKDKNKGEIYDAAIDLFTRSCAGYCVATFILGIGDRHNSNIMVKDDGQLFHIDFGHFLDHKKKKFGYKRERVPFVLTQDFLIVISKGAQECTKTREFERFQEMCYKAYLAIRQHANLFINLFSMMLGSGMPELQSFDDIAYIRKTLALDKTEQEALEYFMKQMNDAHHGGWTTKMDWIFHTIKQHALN
Chain of UniProt P36897 (whole entry, looked up): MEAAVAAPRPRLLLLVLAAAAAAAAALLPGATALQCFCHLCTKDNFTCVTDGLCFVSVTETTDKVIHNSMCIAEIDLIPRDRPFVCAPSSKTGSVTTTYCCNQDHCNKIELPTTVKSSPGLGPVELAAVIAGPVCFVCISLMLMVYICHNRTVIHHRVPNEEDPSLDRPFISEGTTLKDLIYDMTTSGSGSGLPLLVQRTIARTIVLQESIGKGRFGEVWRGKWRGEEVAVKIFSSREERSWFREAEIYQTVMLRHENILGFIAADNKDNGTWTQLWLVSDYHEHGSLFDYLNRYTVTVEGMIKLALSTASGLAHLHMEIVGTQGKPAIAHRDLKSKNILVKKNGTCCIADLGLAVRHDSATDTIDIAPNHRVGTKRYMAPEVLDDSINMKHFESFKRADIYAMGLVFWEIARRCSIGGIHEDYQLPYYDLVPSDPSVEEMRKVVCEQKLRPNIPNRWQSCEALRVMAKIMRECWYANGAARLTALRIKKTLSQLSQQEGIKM
Chain of UniProt Q8TD19 (whole entry, looked up): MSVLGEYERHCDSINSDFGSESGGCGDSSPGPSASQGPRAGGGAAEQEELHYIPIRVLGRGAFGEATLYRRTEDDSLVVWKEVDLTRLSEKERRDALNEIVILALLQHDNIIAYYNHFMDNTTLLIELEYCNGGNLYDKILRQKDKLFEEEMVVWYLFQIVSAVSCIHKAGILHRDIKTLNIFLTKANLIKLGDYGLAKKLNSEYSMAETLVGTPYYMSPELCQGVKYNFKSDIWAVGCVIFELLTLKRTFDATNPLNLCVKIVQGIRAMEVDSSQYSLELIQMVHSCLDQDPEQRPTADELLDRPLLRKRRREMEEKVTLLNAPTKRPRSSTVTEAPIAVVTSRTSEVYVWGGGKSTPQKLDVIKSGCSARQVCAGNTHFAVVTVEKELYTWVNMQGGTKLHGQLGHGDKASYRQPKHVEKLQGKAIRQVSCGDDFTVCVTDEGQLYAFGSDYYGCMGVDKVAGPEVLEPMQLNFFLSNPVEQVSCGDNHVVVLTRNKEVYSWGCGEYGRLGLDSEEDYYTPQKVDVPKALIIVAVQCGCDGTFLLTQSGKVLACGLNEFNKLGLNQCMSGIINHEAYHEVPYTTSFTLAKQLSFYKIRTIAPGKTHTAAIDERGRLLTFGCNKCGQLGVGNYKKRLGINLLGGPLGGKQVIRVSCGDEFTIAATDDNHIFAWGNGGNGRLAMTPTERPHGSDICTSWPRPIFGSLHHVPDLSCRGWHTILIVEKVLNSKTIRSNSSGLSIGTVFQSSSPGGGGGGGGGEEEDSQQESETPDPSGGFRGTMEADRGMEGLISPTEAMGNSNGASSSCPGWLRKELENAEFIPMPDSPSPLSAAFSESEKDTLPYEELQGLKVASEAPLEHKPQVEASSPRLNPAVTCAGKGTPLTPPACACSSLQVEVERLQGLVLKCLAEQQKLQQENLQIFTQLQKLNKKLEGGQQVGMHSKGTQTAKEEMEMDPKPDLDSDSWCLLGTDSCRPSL
Chain of UniProt Q99759 (whole entry, looked up): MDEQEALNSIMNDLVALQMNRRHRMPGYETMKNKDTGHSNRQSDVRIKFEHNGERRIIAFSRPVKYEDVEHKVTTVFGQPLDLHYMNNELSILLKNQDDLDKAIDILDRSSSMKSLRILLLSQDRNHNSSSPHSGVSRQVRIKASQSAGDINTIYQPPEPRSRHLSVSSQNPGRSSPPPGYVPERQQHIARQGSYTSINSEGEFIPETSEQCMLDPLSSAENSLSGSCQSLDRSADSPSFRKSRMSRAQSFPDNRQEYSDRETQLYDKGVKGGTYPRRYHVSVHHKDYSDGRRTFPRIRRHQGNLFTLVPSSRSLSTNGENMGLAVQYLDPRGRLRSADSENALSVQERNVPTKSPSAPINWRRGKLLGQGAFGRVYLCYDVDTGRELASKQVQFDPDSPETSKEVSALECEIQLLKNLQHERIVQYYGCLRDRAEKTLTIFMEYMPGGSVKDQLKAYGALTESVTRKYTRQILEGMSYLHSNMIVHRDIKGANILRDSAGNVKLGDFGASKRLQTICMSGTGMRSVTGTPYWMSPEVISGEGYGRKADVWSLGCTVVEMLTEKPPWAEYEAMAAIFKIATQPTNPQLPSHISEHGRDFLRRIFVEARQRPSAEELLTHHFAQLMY
Chain of UniProt O95747 (whole entry, looked up): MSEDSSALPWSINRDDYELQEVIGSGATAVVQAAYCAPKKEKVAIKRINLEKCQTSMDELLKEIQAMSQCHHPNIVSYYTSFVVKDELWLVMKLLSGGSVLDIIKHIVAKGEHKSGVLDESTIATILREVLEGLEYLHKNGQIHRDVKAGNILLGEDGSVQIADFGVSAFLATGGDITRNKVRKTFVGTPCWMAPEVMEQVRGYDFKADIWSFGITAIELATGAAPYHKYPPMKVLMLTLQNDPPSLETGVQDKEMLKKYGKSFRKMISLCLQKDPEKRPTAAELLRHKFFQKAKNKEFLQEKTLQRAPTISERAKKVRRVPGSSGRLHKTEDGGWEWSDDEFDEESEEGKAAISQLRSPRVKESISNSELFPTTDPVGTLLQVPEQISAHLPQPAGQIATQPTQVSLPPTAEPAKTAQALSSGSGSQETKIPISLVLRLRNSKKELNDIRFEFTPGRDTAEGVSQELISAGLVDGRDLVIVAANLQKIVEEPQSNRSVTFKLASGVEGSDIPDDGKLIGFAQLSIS
Chain of UniProt Q15077 (whole entry, looked up): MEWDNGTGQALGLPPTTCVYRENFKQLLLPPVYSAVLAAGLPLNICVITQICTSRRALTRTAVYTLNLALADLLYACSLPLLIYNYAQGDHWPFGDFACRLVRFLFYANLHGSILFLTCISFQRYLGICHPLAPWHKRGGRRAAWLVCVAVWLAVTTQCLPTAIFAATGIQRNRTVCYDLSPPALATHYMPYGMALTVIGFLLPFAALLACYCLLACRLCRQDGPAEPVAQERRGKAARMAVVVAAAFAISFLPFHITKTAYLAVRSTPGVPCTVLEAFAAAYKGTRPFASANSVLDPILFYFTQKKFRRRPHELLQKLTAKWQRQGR
Chain of UniProt P47872 (whole entry, looked up): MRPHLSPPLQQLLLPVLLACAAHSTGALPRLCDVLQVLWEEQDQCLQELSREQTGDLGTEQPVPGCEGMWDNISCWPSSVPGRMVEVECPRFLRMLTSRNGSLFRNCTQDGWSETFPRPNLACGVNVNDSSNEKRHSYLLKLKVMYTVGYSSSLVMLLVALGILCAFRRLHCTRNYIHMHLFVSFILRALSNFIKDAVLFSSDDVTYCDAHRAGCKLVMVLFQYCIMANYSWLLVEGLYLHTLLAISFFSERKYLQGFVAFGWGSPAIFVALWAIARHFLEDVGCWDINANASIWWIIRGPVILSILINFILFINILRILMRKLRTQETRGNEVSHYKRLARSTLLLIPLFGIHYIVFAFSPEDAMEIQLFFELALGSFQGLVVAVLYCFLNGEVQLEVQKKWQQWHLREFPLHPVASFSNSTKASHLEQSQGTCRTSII

Series 1
Compound: CC(=O)c1c(NS(C)(=O)=O)c2cc(-c3ccc(Cl)cc3)c(-c3ccc(Cl)cc3Cl)nc2n(C)c1=O
Effect on: cell-free assay
Method: competition with immobilised ligand
Tested at: 1 µM
target | remaining binding [%]
MAPK9 (Homo sapiens, UniProt P45984) | 67
Myosin-IIIb (MYO3B, Homo sapiens, UniProt Q8WXR4) | 99
CAMK1G (Homo sapiens, UniProt Q96NX5) | 100
NEK9 (Homo sapiens, UniProt Q8TD19) | 100
TLK1 (Homo sapiens, UniProt Q9UKI8) | 95
Tyrosine-protein kinase ABL1, phosphorylated (ABL1, Homo sapiens, UniProt P00519, H396P) | 100
RET (Homo sapiens, UniProt P07949, V804L) | 100
WNK2 (Homo sapiens, UniProt Q9Y3S1) | 62
PIK3CA (Homo sapiens, UniProt P42336, C420R) | 93
PIP4K2C (Homo sapiens, UniProt Q8TBX8) | 100
PDGFRA (Homo sapiens, UniProt P16234) | 88
TLK2 (Homo sapiens, UniProt Q86UE8) | 99
MAPK1 (Homo sapiens, UniProt P28482) | 100
Mast/stem cell growth factor receptor Kit, autoinhibited (KIT, Homo sapiens, UniProt P10721) | 100
COQ8A (Homo sapiens, UniProt Q8NI60) | 100
MAP3K10 (Homo sapiens, UniProt Q02779) | 99
TGFBR1 (Homo sapiens, UniProt P36897) | 100
PIK3C2G (Homo sapiens, UniProt O75747) | 91
PRKAA1 (Homo sapiens, UniProt Q13131) | 100
PHKG2 (Homo sapiens, UniProt P15735) | 100
RIOK1 (Homo sapiens, UniProt Q9BRS2) | 100
PIK3CA (Homo sapiens, UniProt P42336, M1043I) | 100
MARK3 (Homo sapiens, UniProt P27448) | 100
WNK1 (Homo sapiens, UniProt Q9H4A3) | 88
PRKCE (Homo sapiens, UniProt Q02156) | 96

Series 2
Target: Diamine acetyltransferase 1 (Homo sapiens, UniProt P21673)
Action: inhibitor
Tested at: 10 µM
Baseline: control
Target sequence (P21673 1-171): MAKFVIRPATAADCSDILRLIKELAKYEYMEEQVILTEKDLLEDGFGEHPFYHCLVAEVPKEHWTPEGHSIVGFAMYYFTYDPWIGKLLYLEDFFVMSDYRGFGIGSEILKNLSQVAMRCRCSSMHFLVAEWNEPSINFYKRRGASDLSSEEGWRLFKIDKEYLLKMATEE
Compound | remaining activity [%]
OC[C@@H](O)[C@H](O)[C@H](O)[C@@H](O)CO | 83.9
O=C1C[C@@H](c2ccc(O[C@@H]3O[C@H](CO)[C@@H](O)[C@H](O)[C@H]3O)cc2)Oc2cc(O)ccc21 | 118
CCCCCCCCCCCCCCCCCCCCCCCCCCCCC | 100
OC[C@H]1O[C@H](O[C@H]2O[C@H](CO)[C@@H](O)[C@H](O)[C@H]2O)[C@H](O)[C@@H](O)[C@@H]1O | 71.1
CC1(C)C(C=C(Cl)Cl)C1C(=O)OCc1cccc(Oc2ccccc2)c1 (centres unmarked) | 104
O=C(O)CO | 101
c1ccc(CNc2ncnc3[nH]cnc23)cc1 | 75.5
CCCCCCCC(=O)CCc1ccc(O)c(OC)c1 | 83.1
C/C(=C\C(=O)CC(C)C(=O)O)[C@H]1C[C@H](O)[C@@]2(C)C3=C(C(=O)C[C@]12C)[C@@]1(C)CCC(=O)C(C)(C)[C@@H]1C[C@@H]3O (some centres unmarked) | 106
Cc1ccc(C=O)o1 | 83.1
COc1ccc(-c2cc(=O)c3c(O)c(OC)c(OC)cc3o2)cc1 | 89.1
O=C[C@H](O)[C@@H](O)[C@H](O[C@H]1O[C@H](CO)[C@@H](O[C@H]2O[C@H](CO)[C@@H](O[C@H]3O[C@H](CO)[C@@H](O[C@H]4O[C@H](CO)[C@@H](O[C@H]5O[C@H](CO)[C@@H](O[C@H]6O[C@H](CO)[C@@H](O)[C@H](O)[C@H]6O)[C@H](O)[C@H]5O)[C@H](O)[C@H]4O)[C@H](O)[C@H]3O)[C@H](O)[C@H]2O)[C@H](O)[C@H]1O)[C@H](O)CO | 97.3
O=C(CC(O)(CC(=O)OCc1ccc(O[C@@H]2O[C@H](CO)[C@@H](O)[C@H](O)[C@H]2O)cc1)C(=O)O)OCc1ccc(O[C@@H]2O[C@H](CO)[C@@H](O)[C@H](O)[C@H]2O)cc1 | 94.9
COc1cc(O)c2c(=O)cc(-c3ccc(O)cc3)oc2c1 | 96.7

Series 3
SMILES: Cc1cc(Nc2nc(-c3ccccc3)nc3ccccc23)n[nH]1
Effect on: enzyme activity
Action: inhibitor
Tested at: 0.5 µM
Baseline: control
target | remaining activity
MAP3K3 (Homo sapiens, UniProt Q99759) | 82.9%
NEK2 (Homo sapiens, UniProt P51955) | 99.3%
TGFBR2 (Homo sapiens, UniProt P37173) | 116%
STK39 (Homo sapiens, UniProt Q9UEW8) | 118%
STK11 (Homo sapiens, UniProt Q15831) | 69%
Protein kinase C beta type, isoform beta-I (PRKCB, Homo sapiens, UniProt P05771) | 99.9%
cGMP-dependent protein kinase 1, isoform beta (PRKG1, Homo sapiens, UniProt Q13976) | 94.9%
DAPK1 (Homo sapiens, UniProt P53355) | 39.1%
PRKACA (Homo sapiens, UniProt P17612) | 97.2%
TGFBR1 (Homo sapiens, UniProt P36897) | 97.1%
PRKCA (Homo sapiens, UniProt P17252) | 92.2%
Cyclin-dependent kinase 4, with cyclin D1 (CDK4, Homo sapiens, UniProt P11802) | 100%
DAPK2 (Homo sapiens, UniProt Q9UIK4) | 89.5%
CAMK2D (Homo sapiens, UniProt Q13557) | 97.3%
GRK3 (Homo sapiens, UniProt P35626) | 106%
IKBKB (Homo sapiens, UniProt O14920) | 69.8%
Cyclin-dependent kinase 5, with p25 (CDK5, Homo sapiens, UniProt Q00535) | 98.7%
IKBKE (Homo sapiens, UniProt Q14164) | 67.1%
MAPK9 (Homo sapiens, UniProt P45984) | 92.4%
CHEK2 (Homo sapiens, UniProt O96017) | 31.3%
OXSR1 (Homo sapiens, UniProt O95747) | 98.1%
STK10 (Homo sapiens, UniProt O94804) | 56.2%
Tyrosine-protein kinase Lyn, isoform B (LYN, Homo sapiens, UniProt P07948) | 88.7%

Series 4
Structure (SMILES): CCN(c1nc(N)c(C(=O)N=C(N)N)nc1Cl)C(C)C
Effect on: β-arrestin recruitment
Action: agonist
Method: PRESTO-Tango
Tested at: 10 µM
Baseline: untreated
target | fold over basal
Mas-related G-protein coupled receptor MRG (MAS1L, Homo sapiens, UniProt P35410) | 0.81
ADGRG2 (Homo sapiens, UniProt Q8IZP9) | 0.99
ADRA1B (Homo sapiens, UniProt P35368) | 1.11
EDNRB (Homo sapiens, UniProt P24530) | 1.37
Probable G-protein coupled receptor 150 (GPR150, Homo sapiens, UniProt Q8NGU9) | 1.54
Secretin receptor (SCTR, Homo sapiens, UniProt P47872) | 1.1
P2Y purinoceptor 6 (P2RY6, Homo sapiens, UniProt Q15077) | 1.39
Retinoic acid-induced protein 3 (GPRC5A, Homo sapiens, UniProt Q8NFJ5) | 0.88
Probable G-protein coupled receptor 141 (GPR141, Homo sapiens, UniProt Q7Z602) | 1.18
ACKR3 (Homo sapiens, UniProt P25106) | 7.95
LPAR2 (Homo sapiens, UniProt Q9HBW0) | 1.48
CCR8 (Homo sapiens, UniProt P51685) | 0.93

Repeated from above (series 4):
target | fold over basal
Secretin receptor (SCTR, Homo sapiens, UniProt P47872) | 1.1
P2Y purinoceptor 6 (P2RY6, Homo sapiens, UniProt Q15077) | 1.39
Retinoic acid-induced protein 3 (GPRC5A, Homo sapiens, UniProt Q8NFJ5) | 0.88
Probable G-protein coupled receptor 141 (GPR141, Homo sapiens, UniProt Q7Z602) | 1.18
